{"data": "Results pooled from the literature", "note": "A part holds a random share of what one study measured. Positions count from the first letter of the parent shown."}
{"data": "Set 1", "target": "CCNE1, cyclin fold, Cln2 fusion (human)", "technique": "yeast growth competition, sequencing", "medium": "yeast", "notes": "weak parent motif", "reference": "not given", "reading": "higher = stronger binding", "parent": "RB1 docking peptide (human); PKPLKKLRFDIEG"}
{"Substitution": "PPPLKKLRFDIEG [K2P]", "normalised enrichment score": 0.355}
{"Substitution": "PKRLKKLRFDIEG [P3R]", "normalised enrichment score": 0.264}
{"Substitution": "PKPLKKSRFDIEG [L7S]", "normalised enrichment score": 0.354}
{"Substitution": "GKPLKKLRFDIEG [P1G]", "normalised enrichment score": -0.156}
{"Substitution": "TKPLKKLRFDIEG [P1T]", "normalised enrichment score": 0.0688}
{"Substitution": "PKPLQKLRFDIEG [K5Q]", "normalised enrichment score": 0.443}
{"Substitution": "PKPLKKLRFDIED [G13D]", "normalised enrichment score": -0.0653}
{"Substitution": "PKPLKKLIFDIEG [R8I]", "normalised enrichment score": 0.279}
{"Substitution": "PKPLKKLRFDFEG [I11F]", "normalised enrichment score": 0.333}
{"Substitution": "PKPLKKLRSDIEG [F9S]", "normalised enrichment score": -0.0468}
{"Substitution": "PKPLKRLRFDIEG [K6R]", "normalised enrichment score": 0.151}
{"data": "Set 2", "target": "Myc proto-oncogene protein, bHLH-zipper, MAX partner unstated (MYC, Homo sapiens, UniProt P01106, residues 368-449)", "technique": "protein-binding microarray", "molecule type": "double-stranded DNA, one strand shown", "medium": "in vitro", "concentration": "not given", "notes": "k-mer, scored over probes, only values ≥0.25", "reading": "higher = stronger binding", "sequence of UniProt P01106 (368-449, looked up)": "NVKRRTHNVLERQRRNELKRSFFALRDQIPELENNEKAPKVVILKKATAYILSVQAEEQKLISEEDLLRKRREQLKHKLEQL"}
{"Oligonucleotide": "ACGCGGAG", "E-score": 0.263}
{"Oligonucleotide": "CGAGGCCC", "E-score": 0.27}
{"Oligonucleotide": "CACCACGC", "E-score": 0.446}
{"Oligonucleotide": "CTCGCGGC", "E-score": 0.275}
{"Oligonucleotide": "ATGTCACG", "E-score": 0.325}
{"Oligonucleotide": "CATGCCGA", "E-score": 0.378}
{"Oligonucleotide": "CGTCACGC", "E-score": 0.295}
{"data": "Set 3", "target": "Interferon regulatory factor 7, full length, phosphomimetic (IRF7, Homo sapiens, UniProt Q92985, residues 1-503, S101K/S471D/S472D/S475D/S476D/S477D/S483D/S484D/S487D)", "technique": "protein-binding microarray", "molecule type": "double-stranded DNA, one strand shown", "medium": "in vitro", "concentration": "250 nM", "notes": "60-bp whole probe", "together with": "salmon DNA 0.4 mg/ml", "reference": "random background probes", "reading": "higher = stronger binding", "constant ends, left off below": "GCCTAGCAC … GTCTTGATTCGCTTGACGCTGCTG", "Target sequence (chain)": "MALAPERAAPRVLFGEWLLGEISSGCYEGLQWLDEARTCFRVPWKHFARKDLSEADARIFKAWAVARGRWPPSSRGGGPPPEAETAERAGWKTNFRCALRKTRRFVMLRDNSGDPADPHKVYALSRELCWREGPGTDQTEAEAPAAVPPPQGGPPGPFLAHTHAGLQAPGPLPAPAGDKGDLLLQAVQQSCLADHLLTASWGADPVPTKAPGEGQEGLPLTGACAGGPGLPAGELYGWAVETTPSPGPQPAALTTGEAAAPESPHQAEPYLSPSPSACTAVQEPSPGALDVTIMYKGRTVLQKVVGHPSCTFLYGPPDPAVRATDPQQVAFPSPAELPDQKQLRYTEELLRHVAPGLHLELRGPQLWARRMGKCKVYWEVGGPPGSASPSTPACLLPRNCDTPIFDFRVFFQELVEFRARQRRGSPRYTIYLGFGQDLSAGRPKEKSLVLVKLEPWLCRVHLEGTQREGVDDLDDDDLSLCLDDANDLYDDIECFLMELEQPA"}
{"Oligonucleotide": "TTAGATCTCAGTTTCGATGAGTGCTAG", "log fluorescence [z-score]": 2.46}
{"Oligonucleotide": "TTAGGTACCCTTCTCCTTTAGTGCTAG", "log fluorescence [z-score]": 0.732}
{"Oligonucleotide": "GACGGACTGCTTATCCTGACGTGCTAG", "log fluorescence [z-score]": -0.615}
{"Oligonucleotide": "TTAGGTATCGGGACTCGGTTAGTGCTA", "log fluorescence [z-score]": 1.42}
{"Oligonucleotide": "TTAGGTATGCTTTTCCTTTAGTGCTAG", "log fluorescence [z-score]": 0.727}
{"Oligonucleotide": "TTAGAGCTCAGTCTCGATTAGTGCTAG", "log fluorescence [z-score]": 0.704}
{"Oligonucleotide": "TTAGGAATCGGGACTGGGTTAGTGCTA", "log fluorescence [z-score]": 0.0201}
{"Oligonucleotide": "GACGACCTGGGGACTGGAGACGTGCTA", "log fluorescence [z-score]": -0.575}
{"Oligonucleotide": "GACGGACTGGGGCTTCGGGACGTGCTA", "log fluorescence [z-score]": -0.651}
{"Oligonucleotide": "GACGTACTGGGACTGGGGACGTGCTAG", "log fluorescence [z-score]": 0.0663}
{"data": "Other studies, line by line"}
{"Molecule": "PhoQ, residues 284 288 289 292 302 303 SCKMEA", "target": "PhoP, residues 12 14 15 18 19 AQALL (Escherichia coli, UniProt P23836)", "test": "Sort-seq, measured: YFP reporter", "test system": "E. coli", "conditions": "PhoQ-PhoP variant library, together with: 10 µM Mg2+", "scale": "reference: high Mg2+ state, higher = stronger signaling", "endpoint": "fold induction", "value": 14.1}
